Published values from different studies.
Each line is one published result; not all experiments were run side by side. Numbers after ± are the reported error.
Method: steady-state kinetics
B1: GDP-perosamine synthase (Caulobacter vibrioides, UniProt Q9A9H3); chain MSDLPRISVAAPRLDGNERDYVLECMDTTWISSVGRFIVEFEKAFADYCGVKHAIACNNGTTALHLALVAMGIGPGDEVIVPSLTYIASANSVTYCGATPVLVDNDPRTFNLDAAKLEALITPRTKAIMPVHLYGQICDMDPILEVARRHNLLVIEDAAEAVGATYRGKKSGSLGDCATFSFFGNKIITTGEGGMITTNDDDLAAKMRLLRGQGMDPNRRYWFPIVGFNYRMTNIQAAIGLAQLERVDEHLAARERVVGWYEQKLARLGNRVTKPHVALTGRHVFWMYTVRLGEGLSTTRDQVIKDLDALGIESRPVFHPMHIMPPYAHLATDDLKIAEACGVDGLNLPTHAGLTEADIDRVIAALDQVLV
B2: cbh1 (Trichoderma reesei, UniProt P62694); chain QSACTLQSETHPPLTWQKCSSGGTCTQQTGSVVIDANWRWTHATNSSTNCYDGNTWSSTLCPDNETCAKNCCLDGAAYASTYGVTTSGNSLSIGFVTQSAQKNVGARLYLMASDTTYQEFTLLGNEFSFDVDVSQLPCGLNGALYFVSMDADGGVSKYPTNTAGAKYGTGYCDSQCPRDLKFINGQANVEGWEPSSNNANTGIGGHGSCCSEMDIWEANSISEALTPHPCTTVGQEICEGDGCGGTYSDNRYGGTCDPDGCDWNPYRLGNTSFYGPGSSFTLDTTKKLTVVTQFETSGAINRYYVQNGVTFQQPNAELGSYSGNELNDDYCTAEEAEFGGSSFSDKGGLTQFKKATSGGMVLVMSLWDDYYANMLWLDSTYPTNETSSTPGAVRGSCSTSSGVPAQVESQSPNAKVTFSNIKFGPIGSTGNPSGGNPPGGNRGTTTTRRPATTTGSSPGPTQSHYGQCGGIGYSGPTVCASGTTCQVLNPYYSQCL
B3: BaiA2 (Clostridium scindens, UniProt P19337); chain MNLVQDKVTIITGGTRGIGFAAAKIFIDNGAKVSIFGETQEEVDTALAQLKELYPEEEVLGFAPDLTSRDAVMAAVGQVAQKYGRLDVMINNAGITSNNVFSRVSEEEFKHIMDINVTGVFNGAWCAYQCMKDAKKGVIINTASVTGIFGSLSGVGYPASKASVIGLTHGLGREIIRKNIRVVGVAPGVVNTDMTNGNPPEIMEGYLKALPMKRMLEPEEIANVYLFLASDLASGITATTVSVDGAYRP
B4: enzyme D208A (Thermococcus kodakarensis, UniProt Q5JID5); chain MLYVEILGNLPEMARDEVKAMLELGGGEIIGQDYLFLKVDAGEKAFPFLDRLGLAHEYGLLLVEADSVEELLQKAGEVEWPIKGAFKVDTETMANCRHDVLDLPRKLGAVIHAQGFRVNLSKPDTVVRVYCGERLYAGIRLRYFDPKDFEKRKAHHRPFFRPISLHPRVSRALVNLTKATREILDPFMGAGGILIEAGLLGLRVYGVAIRPEMVEGAETNLKHYGVRDYTLKLGDATRLEDLFPDKKFEAVATDPPYGTAATLAGRKRDELYRKALRSIYNVLEDGGRLAIAFPTDFNGKAEAEAVGFRTLGRYYQRVHKSLERYFYVFEK
B5: estF (Pseudomonas fluorescens, UniProt P22862); chain STFVAKDGTQIYFKDWGSGKPVLFSHGWLLDADMWEYQMEYLSSRGYRTIAFDRRGFGRSDQPWTGNDYDTFADDIAQLIEHLDLKEVTLVGFSMGGGDVARYIARHGSARVAGLVLLGAVTPLFGQKPDYPQGVPLDVFARFKTELLKDRAQFISDFNAPFYGINKGQVVSQGVQTQTLQIALLASLKATVDCVTAFAETDFRPDMAKIDVPTLVIHGDGDQIVPFETTGKVAAELIKGAELKVYKDAPHGFAVTHAQQLNEDLLAFLKR
B6: YdjH (Escherichia coli, UniProt P77493); chain MDNLDVICIGAAIVDIPLQPVSKNIFDVDSYPLERIAMTTGGDAINEATIISRLGHRTALMSRIGKDAAGQFILDHCRKENIDIQSLKQDVSIDTSINVGLVTEDGERTFVTNRNGSLWKLNIDDVDFARFSQAKLLSLASIFNSPLLDGKALTEIFTQAKARQMIICADMIKPRLNETLDDICEALSYVDYLFPNFAEAKLLTGKETLDEIADCFLACGVKTVVIKTGKDGCFIKRGDMTMKVPAVAGITAIDTIGAGDNFASGFIAALLEGKNLRECARFANATAAISVLSVGATTGVKNRKLVEQLLEEYEG
B7: carbamoyl phosphate synthetase large subunit M174E (Escherichia coli, UniProt P00968); chain PKRTDIKSILILGAGPIVIGQACEFDYSGAQACKALREEGYRVILVNSNPATIMTDPEMADATYIEPIHWEVVRKIIEKERPDAVLPTMGGQTALNCALELERQGVLEEFGVTMIGATADAIDKAEDRRRFDVAMKKIGLETARSGIAHTMEEALAVAADVGFPCIIRPSFTEGGSGGGIAYNREEFEEICARGLDLSPTKELLIDESLIGWKEYEMEVVRDKNDNCIIVCSIENFDAMGIHTGDSITVAPAQTLTDKEYQIMRNASMAVLREIGVETGGSNVQFAVNPKNGRLIVIEMNPRVSRSSALASKATGFPIAKVAAKLAVGYTLDELMNDITGGRTPASFEPSIDYVVTKIPRFNFEKFAGANDRLTTQMKSVGEVMAIGRTQQESLQKALRGLEVGATGFDPKVSLDDPEALTKIRRELKDAGADRIWYIADAFRAGLSVDGVFNLTNIDRWFLVQIEELVRLEEKVAEVGITGLNADFLRQLKRKGFADARLAKLAGVREAEIRKLRDQYDLHPVYKRVDTCAAEFATDTAYMYSTYEEECEANPSTDREKIMVLGGGPNRIGQGIEFDYCCVHASLALREDGYETIMVNCNPETVSTDYDTSDRLYFEPVTLEDVLEIVRIEKPKGVIVQYGGQTPLKLARALEAAGVPVIGTSPDAIDRAEDRERFQHAVERLKLKQPANATVTAIEMAVEKAKEIGYPLVVRPSYVLGGRAMEIVYDEADLRRYFQTAVSVSNDAPVLLDHFLDDAVEVDVDAICDGEMVLIGGIMEHIEQAGVHSGDSACSLPAYTLSQEIQDVMRQQVQKLAFELQVRGLMNVQFAVKNNEVYLIEVNPRAARTVPFVSKATGVPLAKVAARVMAGKSLAEQGVTKEVIPPYYSVKEVVLPFNKFPGVDPLLGPEMRSTGEVMGVGRTFAEAFAKAQLGSNSTMKKHGRALLSVREGDKERVVDLAAKLLKQGFELDATHGTAIVLGEAGINPRLVNKVHEGRPHIQDRIKNGEYTYIINTTSGRRAIEDSRVIRRSALQYKVHYDTTLNGGFATAMALNADATEKVISVQEMHAQIK
B8: Mj-MAT W387F/Y323W (Methanocaldococcus jannaschii, UniProt Q58605); chain MRNIIVKKLDVEPIEERPTEIVERKGLGHPDSICDGIAESVSRALCKMYMEKFGTILHHNTDQVELVGGHAYPKFGGGVMVSPIYILLSGRATMEILDKEKNEVIKLPVGTTAVKAAKEYLKKVLRNVDVDKDVIIDCRIGQGSMDLVDVFERQKNEVPLANDTSFGVGYAPLSTTERLVLETERFLNSDELKNEIPAVGEDIKVMGLREGKKITLTIAMAVVDRYVKNIEEYKEVIEKVRKKVEDLAKKIADGYEVEIHINTADDYERESVYLTVTGTSAEMGDDGSVGRGNRVNGLITPFRPMSMEAASGKNPVNHVGKIWNILANLIANDIAKLEGVKECYVRILSQIGKPINEPKALDIEIITEDSYDIKDIEPKAKEIANKFLDNIMEVQKMIVEGKVTTF
B9: putA D779W (Bradyrhizobium diazoefficiens, UniProt Q89E26); chain MPNIPPPFTAPYAPDDAEIAARLLPASHLSPPQEARIHRTATRLIEAIRKRDDRLGGVEDMLREFALSTKEGLALMVLAEALLRVPDARTADQFIEDKLGEGDFIHHETKSTAFLVNASAWALGLSARVIQPGETPDGTIGRLVKRLGAPAVRTATRQAMRLMGNHFVLGETIEQALERGKPRSGQKTRYSFDMLGEGARTAADARRYFDAYASAIETIGKAAGNHALPDRPGISVKLSALHPRFEAISRARVMVELVPQLLDLAQRAKAHDLNFTVDAEEADRLELSLDVIAATLADPSLKGWDGFGLAIQAYQKRASAVIDYVDALARAHDRKLMVRLVKGAYWDTEIKRAQERGLDGYPVFTRKAMTDLNYVACASKLLALRPRIFPQFATHNALTVATVLEMAEGSSGFEFQRLHGMGEALYEQLAKDHADIAYRTYAPVGSHRDLLAYLVRRLLENGANSSFVAQAADYRVPVPALLQRPADAIVRPQAAAHPRIPLPCDLFAPERRNSRGVEFGARTALDQLLTDVKAETGDLKPIADATPDQAHAAVAAARAGFAGWSRTPAGIRAAALEQAAHLLESRSAHFIALLQREGGKTLDDALSELREAADFCRYYAAQGRKLFGSETAMPGPTGESNALTMRGRGVFVAISPWNFPLAIFLGQVTAALMAGNSVVAKPAEQTPRIAREAVALLHEAGIPKSALYLVTGDGRIGAALTAHPDIAGVVFTGSTEVARSINRALAAKDGPIVPLIAETGGINAMIADATALPEQVADWVVTSAFRSAGQRCSALRLLFVQEDVADRMIEMVAGAARELKIGDPSDVATHVGPVIDVEAKQRLDAHIARMKTEARLHFAGPAPEGCFVAPHIFELTEAGQLTEEVFGPILHVVRYRPENLERVLRAIERTGYGLTLGVHSRIDDSIEAIIDRVQVGNIYVNRNMIGAVVGVQPFGGNGLSGTGPKAGGPHYLARFATEQTVTINTAAAGGNAALLAGEE

Substance	substrate	pH	temperature	notes	together with	kcat [s⁻¹]
B1 (GDP-perosamine synthase)	C[C@H]1O[C@H](OP(=O)(O)OP(=O)(O)OC[C@H]2O[C@@H](n3cnc4c(=O)[nH]c(N)nc43)[C@H](O)[C@@H]2O)[C@@H](O)[C@@H](O)C1=O	pH 7.5	room temperature	NaCl 110 mM, ping-pong fit	L-glutamate cosubstrate; 100 µM PLP	2.7 ± 0.6
B2 (cbh1)	O=[N+]([O-])c1ccccc1O[C@@H]1O[C@H](CO)[C@@H](O[C@@H]2O[C@H](CO)[C@@H](O)[C@H](O)[C@H]2O)[C@H](O)[C@H]1O	pH 5	25 °C	apparent		6.6e-05 ± 1.5e-05
B3 (BaiA2)	C[C@H](CCC(=O)SCCNC(=O)CCNC(=O)[C@H](O)C(C)(C)COP(=O)(O)OP(=O)(O)OC[C@H]1O[C@@H](n2cnc3c(N)ncnc32)[C@H](O)[C@@H]1OP(=O)(O)O)[C@H]1CC[C@H]2[C@@H]3[C@H](O)C[C@@H]4C[C@H](O)CC[C@]4(C)[C@H]3CC[C@]12C	pH 8.7	37 °C		NAD+	0.2
enzyme (Leishmania major, UniProt E9AE57)	O=C(O)C[C@H](O)C(=O)O					537 ± 7
B4 (enzyme D208A)	C[S+](CC[C@H](N)C(=O)O)C[C@H]1O[C@@H](n2cnc3c(N)ncnc32)[C@H](O)[C@@H]1O	pH 7.5	50 °C	apparent		0.000117 to 0.0005
BshA (Bacillus subtilis, UniProt P42982)	O=C(O)C[C@H](O)C(=O)O	pH 7.5	21 °C		UDP-GlcNAc 0–4 mM	2.63 ± 0.07
B5 (estF)	CCOC(C)=O	pH 6.5	23 °C	apparent		12 ± 0.5
B6 (YdjH)	OC[C@H]1O[C@H](CO)[C@@H](O)[C@@H]1O	pH 7.4	30 °C	KCl 100 mM	ATP 2.0 mM, MgCl2 5.0 mM	0.06 ± 0.01
B7	Nc1ncnc2c1ncn2[C@@H]1O[C@H](COP(=O)(O)OP(=O)(O)OP(=O)(O)O)[C@@H](O)[C@H]1O	pH 7.6		KCl 100 mM	glutamine 10 mM, ornithine 10 mM	0.11 ± 0.01
B8 (Mj-MAT W387F/Y323W)	CSCC[C@H](N)C(=O)O		55 °C		ATP 2.5 mM, methionine 0.05-1 mM	1.62 ± 0.09
B9 (putA D779W)	O=C(O)[C@@H]1CCC=N1	pH 7.5	23 °C			0.003 ± 0.001
TaNK (Thermoplasma acidophilum, UniProt Q9HJT3)	Nc1ncnc2c1ncn2[C@@H]1O[C@H](COP(=O)(O)OP(=O)(O)OP(=O)(O)O)[C@@H](O)[C@H]1O	pH 8	22 °C	apparent	inosine, Mg2+	0.174 ± 0.003

A few entries again:
Substance	substrate	pH	temperature	notes	together with	kcat [s⁻¹]
B3 (BaiA2)	C[C@H](CCC(=O)SCCNC(=O)CCNC(=O)[C@H](O)C(C)(C)COP(=O)(O)OP(=O)(O)OC[C@H]1O[C@@H](n2cnc3c(N)ncnc32)[C@H](O)[C@@H]1OP(=O)(O)O)[C@H]1CC[C@H]2[C@@H]3[C@H](O)C[C@@H]4C[C@H](O)CC[C@]4(C)[C@H]3CC[C@]12C	pH 8.7	37 °C		NAD+	0.2
